Experimental data of several laboratories.
Lines come from different studies, so protocols differ. “And” joins repeats or separate records; there may be more than shown. ± marks the error that the study gave.

N[C@H](CSC(F)(F)[18F])C(=O)O
tissue uptake (Kunming mice, turpentine inflammation, blood; intravenous, 0.74 MBq, 60 min): 1.44 ± 0.24 %ID/g

COc1ccc(Nc2nc(Nc3ccc(OCCOCCOCC[18F])cc3)ncc2Br)cc1
tissue uptake (ICR mice, S180 tumour, stomach; intravenous, 370 kBq, 60 min): 1.56 ± 0.16 %ID

N#C[C@@H]1CCCN1C(=O)CNC(=O)c1ccnc2ccc(OCCCN3CCN(C(=O)CCc4ccc(O)c(CN5CCN6CC(=O)[O][Al-]([18F])([O]C(=O)C5)[O]c5ccc(CCC(=O)N7CCN(CCCOc8ccc9nccc(C(=O)NCC(=O)N%10CCC[C@H]%10C#N)c9c8)CC7)cc5C6)c4)CC3)cc12 (stereo partly drawn)
tissue uptake (BALB/c nude mice, U-87 MG xenograft, kidney; 2 h): 2.9 ± 0.45 %ID/g

O=C(NCC1OC2CCC=CCCC2O1)c1ccc(COCCOCCOCC[18F])cc1 (stereo not drawn)
tissue uptake (healthy female BALB/c nude mice, bone; intravenous, 7.4 MBq per mouse, 120 min): 2.5 ± 0.2 %ID/g

COc1ccc2c(c1)C(C)(C)C(/C=C/C1=C(Oc3ccc(C(=O)NCCCCOc4cc(CN(Cc5ccccn5)Cc5ccccn5)cc(CN(Cc5ccccn5)Cc5ccccn5)c4)cc3)C(=C/C=C3/N(CCCCS(=O)(=O)[O-])c4ccc(OC)cc4C3(C)C)CCC1)=[N+]2CCCCS(=O)(=O)[O-].O=[N+]([O-])[O-].O=[N+]([O-])[O-].[99Tc+].[C-]#[O+].[C-]#[O+].[C-]#[O+].[Zn+2]
tissue uptake (BALB/c mice, S. aureus myositis, contralateral muscle; 12 h post-injection): 0.21 %ID/g and 0.1 %ID/g and 0.13 %ID/g and 0.24 %ID/g

Cc1nc(N)nc2c1C(=O)N[C@@H](c1ccc(F)cc1-c1cccc(OCC[18F])n1)C2
tissue uptake (ex vivo biodistribution; C57BL/6 mice, brain; intravenous, 1 MBq, 30 min): 0.57 ± 0.02 %ID

Cc1cc(C)n(CCN(CCN)CCCCCCNC(=O)[C@@H](N)Cc2c[nH]cn2)n1.[99Tc+].[C-]#[O+].[C-]#[O+].[C-]#[O+]
tissue uptake (BALB/c nude mice, A549 xenograft, kidney; intravenous, 15 min): 15.5 ± 0.52 %IA/g

CCCC[C@H](NC(=O)CNC(=O)CNC(=O)[C@H](CCCCNC(=O)[C@H](CC(=O)O)NC(=O)C(C)c1ccc(CC(C)C)cc1)NC(=O)CN1CCN(CC(=O)O)CCN(CC(=O)O)CCN(CC(=O)O)CC1)C(=O)N[C@H]1CC(=O)NCCCC[C@@H](C(N)=O)NC(=O)[C@H](Cc2c[nH]c3ccccc23)NC(=O)[C@H](CCCNC(=N)N)NC(=O)[C@@H](Cc2ccccc2)NC(=O)[C@H](Cc2c[nH]cn2)NC1=O (stereo partly drawn) [lutetium-177 labelled]
tissue uptake (C57 mice, tumour-bearing, stomach; intravenous, 0.037 MBq, 0.5 h): 3.99 ± 0.56 %ID/g

COc1ccc(Nc2nc(Nc3ccc(OCCOCC[18F])cc3)ncc2Br)cc1
tissue uptake (ICR mice, S180 tumour-bearing, kidney; intravenous, 370 kBq, 15 min): 5.62 ± 0.27 %ID/g

CCCC[C@H](NC(=O)COCCOCCNC(=O)CN1CCN(CC(=O)O)CCN(CC(=O)O)CC1)C(=O)N[C@H]1CC(=O)NCCCC[C@@H](C(N)=O)NC(=O)[C@H](Cc2c[nH]c3ccccc23)NC(=O)[C@H](CCCNC(=N)N)NC(=O)[C@@H](Cc2ccccc2)NC(=O)[C@H](Cc2c[nH]cn2)NC1=O [fluorine-18 labelled]
tissue uptake (C57 mice B16-F10 melanoma, liver; intravenous, 0.37 MBq, 1 h): 1.12 ± 0.27 %ID/g

C[N+](C)(CCOCCOCCOCCNC(=S)Nc1ccc(C[C@H]2CN(CC(=O)[O-])CCN(CC(=O)[O-])CCN2CC(=O)[O-])cc1)C[c-]1cccc1.[64Cu+2].[Fe+2].c1cc[cH-]c1
tissue uptake (measured: liver; nude mice, BxPC-3 tumour; 8 h, pretargeting, 72 h lag): 0.4 ± 0.1 %ID/g

CC(C)c1noc(C2CCN(c3ncnc(Nc4ccc(OCC[18F])cc4)c3[N+](=O)[O-])CC2)n1
tissue uptake (ex vivo biodistribution after PET; C57BL/J male mice, brain; 60 min): 0.21 ± 0.06 %ID/g

O=C(NCC1OC2CCC=CCCC2O1)c1ccc([18F])nc1 (stereo not drawn)
tissue uptake (healthy female BALB/c nude mice, pancreas; intravenous, 7.4 MBq per mouse, 10 min): 6.3 ± 2.3 %ID/g

O=C([O-])CN1CCN(CC(=O)[O-])CCN(CC(=O)NC[C@H]2CC[C@H](C(=O)N[C@H](Cc3cnc4ccccc4c3)C(=O)NCCCC[C@H](NC(=O)N[C@@H](CCC(=O)O)C(=O)O)C(=O)O)CC2)CCN(CC(=O)[O-])CC1.[64Cu+2]
tissue uptake (ex vivo gamma counting; 22Rv1 tumour-bearing mice, blood; intravenous, 0.74 MBq, 24 h post-injection): 2.24 %ID/g

N#C[C@@H]1CCCN1C(=O)CNC(=O)c1ccnc2ccc(OCCCN3CCN(C(=O)CCc4ccc5c(c4)CN4CCN6CC(=O)[O][68Ga-]([O]C(=O)C4)([O]5)[O]c4ccc(CCC(=O)N5CCN(CCCOc7ccc8nccc(C(=O)NCC(=O)N9CCC[C@H]9C#N)c8c7)CC5)cc4C6)CC3)cc12
tissue uptake (BALB/c nude mice, U-87 MG xenograft, spleen; 2 h): 0.68 ± 0.1 %ID/g

CC(=O)N([O-])CCCCCNC(=O)CCC(=O)N([O-])CCCCCNC(=O)CCC(=O)N([O-])CCCCCN.[89Zr+4]
tissue uptake (gamma counting; healthy Balb/c mice, adrenal; intravenous, 24 h, 89Zr-labelled complex): 0.08 ± 0.01 %ID/g

Cc1cc(C)n(CCN(CCN)CCCCCCNC(=O)[C@@H](N)Cc2c[nH]c3ccccc23)n1.[99Tc+].[C-]#[O+].[C-]#[O+].[C-]#[O+]
tissue uptake (BALB/c nude mice, A549 xenograft, liver; intravenous, 15 min): 37.7 ± 5.37 %IA/g

CC[C@H](C)[C@H](NC(=O)C[C@H](NC(=O)CN1CCN2CCN(CC1)CC(=O)[O][Al]([18F])[O]C(=O)C2)C(=O)O)C(=O)N[C@H]1CCc2cccc3c2N(C1=O)[C@H](C(=O)NCc1cn[nH]n1)C3
tissue uptake (C57BL/6J mice, MC-38 tumour, anti-PD-1 treated, stomach; 0.5 h): 1.53 ± 0.6 %ID/g

CC(C)C[C@H](NC(=O)[C@@H](CCCCNC(=O)[C@@H](Cc1ccccc1)NC(=O)CCCCCCCNC(=O)CN1CCN(CC(=O)O)CCN(CC(=O)O)CCN(CC(=O)O)CC1)NC(=O)[C@H](Cc1ccc(O)cc1)NC(=O)[C@H](CO)NC(=O)[C@H](Cc1c[nH]c2ccccc12)NC(=O)[C@H](Cc1c[nH]cn1)NC(=O)[C@@H]1CCC(=O)N1)C(=O)N[C@@H](CCCNC(=N)N)C(=O)N1CCC[C@H]1C(=O)NCC(N)=O [indium-111 labelled]
tissue uptake (biodistribution; male athymic nude mice, DU-145 prostate cancer xenograft, spleen; intravenous, 0.037 MBq, 4 h post-injection): 0.16 ± 0.08 %ID/g

CCCC[C@H](NC(=O)CCCCCCCNC(=O)CN1CCN(CC(=O)O)CCN(CC(=O)O)CC1)C(=O)N[C@H]1CC(=O)NCCCC[C@@H](C(N)=O)NC(=O)[C@H](Cc2c[nH]c3ccccc23)NC(=O)[C@H](CCCNC(=N)N)NC(=O)[C@@H](Cc2ccccc2)NC(=O)[C@H](Cc2c[nH]cn2)NC1=O [fluorine-18 labelled]
tissue uptake (C57 mice, B16/F10 melanoma, liver; intravenous, 1 h, with: NDP-MSH 10 µg): 1.89 ± 0.23 %ID/g

CN(O)C(=O)CCC(=O)NCCCN(CCCCN(CCCNC(=O)CCC(=O)N(C)O)C(=O)CCC(=O)N(C)O)C(=O)CCC(=O)N(C)O.[89Zr]
tissue uptake (gamma counting; healthy Balb/c mice, adrenal; intravenous, 4 h, 89Zr-labelled complex): 0.06 %ID/g

A few entries again:
CC[C@H](C)[C@H](NC(=O)C[C@H](NC(=O)CN1CCN2CCN(CC1)CC(=O)[O][Al]([18F])[O]C(=O)C2)C(=O)O)C(=O)N[C@H]1CCc2cccc3c2N(C1=O)[C@H](C(=O)NCc1cn[nH]n1)C3
tissue uptake (C57BL/6J mice, MC-38 tumour, anti-PD-1 treated, stomach; 0.5 h): 1.53 ± 0.6 %ID/g

CC(C)C[C@H](NC(=O)[C@@H](CCCCNC(=O)[C@@H](Cc1ccccc1)NC(=O)CCCCCCCNC(=O)CN1CCN(CC(=O)O)CCN(CC(=O)O)CCN(CC(=O)O)CC1)NC(=O)[C@H](Cc1ccc(O)cc1)NC(=O)[C@H](CO)NC(=O)[C@H](Cc1c[nH]c2ccccc12)NC(=O)[C@H](Cc1c[nH]cn1)NC(=O)[C@@H]1CCC(=O)N1)C(=O)N[C@@H](CCCNC(=N)N)C(=O)N1CCC[C@H]1C(=O)NCC(N)=O [indium-111 labelled]
tissue uptake (biodistribution; male athymic nude mice, DU-145 prostate cancer xenograft, spleen; intravenous, 0.037 MBq, 4 h post-injection): 0.16 ± 0.08 %ID/g

CCCC[C@H](NC(=O)CCCCCCCNC(=O)CN1CCN(CC(=O)O)CCN(CC(=O)O)CC1)C(=O)N[C@H]1CC(=O)NCCCC[C@@H](C(N)=O)NC(=O)[C@H](Cc2c[nH]c3ccccc23)NC(=O)[C@H](CCCNC(=N)N)NC(=O)[C@@H](Cc2ccccc2)NC(=O)[C@H](Cc2c[nH]cn2)NC1=O [fluorine-18 labelled]
tissue uptake (C57 mice, B16/F10 melanoma, liver; intravenous, 1 h, with: NDP-MSH 10 µg): 1.89 ± 0.23 %ID/g

CN(O)C(=O)CCC(=O)NCCCN(CCCCN(CCCNC(=O)CCC(=O)N(C)O)C(=O)CCC(=O)N(C)O)C(=O)CCC(=O)N(C)O.[89Zr]
tissue uptake (gamma counting; healthy Balb/c mice, adrenal; intravenous, 4 h, 89Zr-labelled complex): 0.06 %ID/g
